Earlier results that unrelated publications cite.
Protocols differ between the studies behind these lines. ± gives the spread as reported.

| SMILES | cell line | test | conditions | how to read | measurement | value |
| --- | --- | --- | --- | --- | --- | --- |
| O=C1c2ccccc2-c2c1c1ccccc1c(=O)n2C[C@@H](O)[C@H](O)[C@H](O)CO | 60 cancer cell lines | cell growth | 10 µM |  | mean growth | 58.4% |
| C[C@@H](Nc1c(-c2c(F)cc(C#CCCN)cc2F)c(Cl)nc2ncnn12)C(C)(C)C | HEK293 |  | 1 µM, 4 h, unit not given | relative to: vehicle (DMSO) | total α-tubulin level | 0.96 ± 0.026 |
| Cc1c(C(=O)NNC(=S)Nc2ccc(Cl)cc2)nnn1Cc1nc2ccccc2[nH]1 | WI-38 and MCF7 |  |  | relative to: WI-38 over MCF7 | selectivity index | 5.76 |
| CNCCCOc1cc(F)c(-c2c(Cl)nc3ncnn3c2N[C@@H](C)C(F)(F)F)c(F)c1 | HEK293 |  | 1 µM, 4 h, unit not given | relative to: vehicle (DMSO) | acetylated α-tubulin level | 6.98 ± 0.91 |
| Cc1ccc(C2C3=C(COC3=O)NC3=C2C(=O)c2ccccc2C3=O)cc1 (centres unmarked) | KB cells | cell growth |  |  | IC50 | > 2.5 µM |
| C[C@H](Nc1c(-c2c(F)cc(OCCCN)cc2F)c(Cl)nc2ncnn12)C(F)(F)F | HEK293 |  | 10 µM, 4 h, unit not given | relative to: vehicle (DMSO) | acetylated α-tubulin level | 0.92 ± 0.35 |
| CCn1cc(-c2cc(Cn3ccnc3)cc3c2CCN([C@H](c2cc(OC)ccn2)C2CC2)C3=O)c(C(F)(F)F)n1 | K562 | cell proliferation |  |  | GI50 | 1.5 ± 0.86 µM |
| C=CC(=O)Nc1ccccc1Nc1nc(Nc2ccnc(C#CCCNC(=O)OC3CC/C=C/CCC3)c2)ncc1Cl (centres unmarked) | A-375 |  |  |  | GI50 | 0.47 ± 0.16 µM |
| CN(C)CCCOc1cc(F)c(-c2c(Cl)nc3ncnn3c2NCC(C)(C)C)c(F)c1 | HEK293 |  | 10 µM, 4 h, unit not given | relative to: vehicle (DMSO) | total α-tubulin level | 0.73 ± 0.07 |
| CC(C)C[C@@H]1NC(=O)[C@H](C(C)C)NC(=O)[C@H](CCCNC(=N)N)NC(=O)[C@@H](N)CSSC[C@@H](C(=O)O)NC(=O)[C@H](CO)NC(=O)CNC(=O)[C@H](CO)NC(=O)[C@H](CCCNC(=N)N)NC1=O | J774.A1 |  | concentration not given |  | cell binding | binds |
| O=C(Nc1cc2nc(-c3ccc(F)c(F)c3)cn2cn1)N1CC[C@H](F)C1 | CRL-8155 |  |  |  | EC50 | > 50 µM |
| CC1=C(CO)C(=O)O[C@@H]([C@@H](C)[C@H]2CC[C@H]3[C@@H]4C[C@H]5O[C@]56[C@@H](O)C=CC(=O)[C@]6(C)[C@H]4CC[C@]23C)C1 | Hep G2 | cell growth |  |  | IC50 | 0.13 µM |
| O=C1c2ccccc2-c2c1c1ccc([N+](=O)[O-])cc1c(=O)n2C[C@H](O)[C@@H](O)[C@H](O)[C@H](O)CO | 60 human cancer cell lines | cell growth |  |  | mean GI50 | 4.6 ± 0.53 µM |
| CCC1=C(C)C2=C(c3ccc([P+](C)(C4CCCCC4)C4CCCCC4)cc3)c3c(C)c(CC)c(C)n3[B-](C)(C)[N+]2=C1C | H9c2 | mitochondrial depolarisation response |  |  | fluorescence intensity decrease | > 70% |
| Cc1nc(Nc2ncc(C(=O)Nc3c(C)cccc3Cl)s2)cc(N2CCN(CCCCCCOCCOCCOCCCCCCOCCCCCC(=O)Nc3cccc4c3C(=O)N(C3CCC(=O)NC3=O)C4=O)CC2)n1 (centres unmarked) | K562 |  |  |  | EC50 | 0.0044 µM |
| O=C1c2ccccc2-c2c1c1ccccc1c(=O)n2C[C@H](O)[C@@H](O)[C@@H](O)[C@H](O)CO | 60 cancer cell lines | cell growth | 10 µM |  | mean growth | 68% |

| SMILES | cell line | test | conditions | how to read | measurement | value |
| --- | --- | --- | --- | --- | --- | --- |
| CS(=O)(=O)N(Cc1ccco1)CC(O)Cn1c2ccccc2c2ccccc21 (centres unmarked) | glioma stem cells | Per2 repression, measured: Per2 |  |  | IC50? | < 10 µM |
| CCOc1ccccc1 | MOLM-13 |  | concentration not given |  | cytotoxicity activity class | inactive |
| O=C1NCCN1CC(O)Cn1c2ccc(F)cc2c2cc(F)ccc21 (centres unmarked) | GSC | cell viability |  |  | EC50 | 8.5 µM |
| CN(C)CCCOc1cc(F)c(-c2c(Cl)nc3ncnn3c2NCC2(C)CC2)c(F)c1 | HEK293 |  | 1 µM, 4 h, unit not given | relative to: vehicle (DMSO) | total α-tubulin level | 0.84 ± 0.12 |
| CC[C@H](C)[C@@H]1NC(=O)[C@H](CC(=O)O)NC(=O)[C@H](CC(=O)O)NC(=O)CNC(=O)[C@@H]2CCCN2C(=O)[C@H](CC(=O)O)NC(=O)[C@H](Cc2ccc(O)cc2)NC(=O)[C@H]([C@@H](C)CC)NC(=O)[C@@H](N)CCC(=O)NCCCC[C@@H](C(=O)O)NC1=O | Caco-2 and Jurkat | cell adhesion | 180 µM | relative to: control peptide | inhibition | ~70% |
| O=[N+]([O-])c1cccc(-c2nn(-c3ccccc3)cc2-c2cc(-c3ccccn3)nc3ncnn23)c1 | MCF7 | VEGFR2 expression | concentration not given |  | inhibition | 63% |
| COc1c(O)cc2oc3cc(O)c(CC=C(C)C)c(O)c3c(=O)c2c1CC=C(C)C | MCF7 | measured: ERα and pS2 | 10 µM, 48 h |  | protein expression | decreased |
| CCOC(=O)N1CCC(C)(c2cc(O)n3nc(C)c(-c4ccc(C(F)(F)F)cc4)c3n2)CC1 | gastric cancer cells |  | concentration not given |  | cell proliferation | decreased |
| Oc1cccc(-c2cccc(O)n2)n1.[Cl-].[Cl-].[Ru+2].c1cnc2c(c1)ccc1cccnc12.c1cnc2c(c1)ccc1cccnc12 | MCF-10A |  |  | relative to: dark IC50 over light IC50 | phototoxicity index | 9 |
| COc1ccc(Cn2cc3c(c2-c2cc(OC)c(OC)c(OC)c2)CCc2cnoc2-3)cc1OC | multidrug-resistant cells |  | concentration not given, added: vincristine |  | potentiation | 60% |
| CN(C)CCCOc1cc(F)c(-c2c(Cl)nc3ncnn3c2NCC2(C)N=N2)c(F)c1 | HEK293 |  | 10 µM, 4 h, unit not given | relative to: vehicle (DMSO) | acetylated α-tubulin level | 0.29 ± 0.03 |
| Clc1ccccc1C(c1ccccc1)(c1ccccc1)n1cc[n+]([Pt-2]([Cl])([Cl])[n+]2ccn(C(c3ccccc3)(c3ccccc3)c3ccccc3Cl)c2)c1 | human tumour cell line panel |  | concentration not given |  | antiproliferative activity | active |
| [Cl-].[Cl-].[Ru+2].c1ccc(-c2ccccn2)nc1.c1ccc(-c2ccccn2)nc1.c1cnc2c(c1)ccc1cccnc12 | MDA-MB-231 |  | dark |  | IC50 | > 100 µM |
| CNCCCOc1cc(F)c(-c2c(Cl)nc3ncnn3c2NCC(F)(F)F)c(F)c1 | HEK293 |  | 10 µM, 4 h, unit not given | relative to: vehicle (DMSO) | acetylated α-tubulin level | 1.81 ± 0.38 |
| Oc1cccc(-c2cccc(O)n2)n1.[Cl-].[Cl-].[Ru+2].c1cnc2c(c1)c1c(c3cccnc32)OCCO1.c1cnc2c(c1)c1c(c3cccnc32)OCCO1 | MCF-10A |  |  | relative to: dark IC50 over light IC50 | phototoxicity index | 2 |
| COc1ccccc1NC(=O)N[C@H](C(=O)Nc1ccc(C(=O)NO)cc1)c1ccccc1 | H7402 | cell viability, MTT |  |  | IC50 | > 20 µM |

Some of these lines once more:
| SMILES | cell line | test | conditions | how to read | measurement | value |
| --- | --- | --- | --- | --- | --- | --- |
| CNCCCOc1cc(F)c(-c2c(Cl)nc3ncnn3c2NCC(F)(F)F)c(F)c1 | HEK293 |  | 10 µM, 4 h, unit not given | relative to: vehicle (DMSO) | acetylated α-tubulin level | 1.81 ± 0.38 |
| O=C1c2ccccc2-c2c1c1ccc([N+](=O)[O-])cc1c(=O)n2C[C@H](O)[C@@H](O)[C@H](O)[C@H](O)CO | 60 human cancer cell lines | cell growth |  |  | mean GI50 | 4.6 ± 0.53 µM |
| CCn1cc(-c2cc(Cn3ccnc3)cc3c2CCN([C@H](c2cc(OC)ccn2)C2CC2)C3=O)c(C(F)(F)F)n1 | K562 | cell proliferation |  |  | GI50 | 1.5 ± 0.86 µM |
